Measured values gathered from unrelated publications.
Numbered parts are unrelated; each lists some results of a single study.

Sample 1
Target: Histone acetyltransferase KAT6A, winged helix 2, GST fusion (KAT6A, Homo sapiens, UniProt Q92794, residues 85-181)
Technique: protein binding microarray
Form: double-stranded DNA, one strand shown
Sample: in vitro
Concentration: not given
Notes: 8-mer, flanks averaged, mean of 2 arrays, mostly near background
Relative to: not given
Direction: higher = stronger binding
Residues (chain): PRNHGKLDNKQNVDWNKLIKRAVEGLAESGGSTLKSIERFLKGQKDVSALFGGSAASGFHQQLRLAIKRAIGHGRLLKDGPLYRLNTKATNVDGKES
Sequence | E-score
GAGGTTGC | 0.0474
ACGGTGCA | -0.0394
CAATCACC | -0.147
CTTGATTC | -0.00876
ATGGTGCC | -0.018
CCAAACGA | 0.043
CAATTGAA | -0.155
CAACTTAG | 0.166
AAGCGAGA | -0.0352
CACCGTGG | -0.0198
AGTTTTAA | 0.027
CCCTGAAG | 0.046
CAATAATG | -0.195
CAAAACCC | 0.0336
AATTCTTC | -0.0808
ACGAACAC | 0.135
GCAATCTA | -0.0677
AGAAATGG | -0.184
AGATGGAT | -0.0101
AGGTTAGA | -0.192
CAGCGCGG | 0.105
GCGGATAC | 0.0576
CTAAGCAA | -0.0785
GCGATGAC | 0.0217
GTTCAAAC | -0.011

Sample 2
Target: Interferon regulatory factor 5, full length, phosphomimetic (IRF5, Homo sapiens, UniProt Q13568-2, residues 1-514, K96S/S451D/S453D/S456D/S462D)
Technique: protein-binding microarray
Form: double-stranded DNA, one strand shown
Sample: in vitro
Concentration: 250 nM
Notes: 60-bp whole probe
With: salmon DNA 0.4 mg/ml
Relative to: random background probes
Direction: higher = stronger binding
Constant ends, left off below: GCCTAGCAC … GTCTTGATTCGCTTGACGCTGCTG
Sequence | log fluorescence
GAGGGTTTCGGTATCGGGACGTGCTAG | 9.05 z-score
TTAGATATCGGGACTGGTTTAGTGCTA | 1.21 z-score
TTAGGCCTCGGTATCGGTTAGTGCTAG | 4.04 z-score
GACGGTATCGGTCCCGGGACGTGCTAG | 4.89 z-score
TCAACTCAGCACTTTGGCACTGTGCTA | -0.185 z-score
TTTACTAGGAGTTTTCAGTCCGTGCTA | 1.07 z-score
ATAGATCTCAGTCTCGATTAGTGCTAG | 0.894 z-score
GTAGATTTCGGGACTGGATTAGTGCTA | 2.53 z-score
GACGGTATAGACTTTCGGGACGTGCTA | 4.31 z-score
CTCATTCTCTGCTTCTGTATGTGCTAG | 0.733 z-score
TCAACTCTCTACATGTGACTGTGCTAG | 0.359 z-score
TTAGGTATCGTCTATCGGTTAGTGCTA | 5.14 z-score
TCATACATGAGTTTAGAACTGTGCTAG | 0.204 z-score
TTAGACTTCGGGTTTCGATTAGTGCTA | 5.96 z-score
TTCGGTTTCGACTATCGGTTAGTGCTA | 9.96 z-score
TCAGCTCCAGGTTCTCTGACTGTGCTA | -0.65 z-score
GTAGGTCTCCTTTTCCTTTAGTGCTAG | 0.00195 z-score
GCCGGTTTCGGGTTTCGGGACGTGCTA | 8.59 z-score
TTAGAACTGAGTCCCGATTAGTGCTAG | -0.142 z-score
GACGGTCTCCTTATCCCGACGTGCTAG | -0.0474 z-score
TTAGGTATCGGAATGGGTTAGTGCTAG | 2.74 z-score
ACTTCATTGCATATAGAAAAGTGCTAG | 0.538 z-score
TTAGGTATAGGTATCGGTTAGTGCTAG | 4.56 z-score
TTAGGTTTCGACTTGCGGTTAGTGCTA | 7.21 z-score
TCACTTATCCTTCCCCTACTGTGCTAG | 0.318 z-score

Sample 3
Target: Sal-like protein 4, full length isoform A (SALL4, Homo sapiens, UniProt Q9UJQ4, residues 1-1053)
Sequence of UniProt Q9UJQ4 (whole entry, looked up): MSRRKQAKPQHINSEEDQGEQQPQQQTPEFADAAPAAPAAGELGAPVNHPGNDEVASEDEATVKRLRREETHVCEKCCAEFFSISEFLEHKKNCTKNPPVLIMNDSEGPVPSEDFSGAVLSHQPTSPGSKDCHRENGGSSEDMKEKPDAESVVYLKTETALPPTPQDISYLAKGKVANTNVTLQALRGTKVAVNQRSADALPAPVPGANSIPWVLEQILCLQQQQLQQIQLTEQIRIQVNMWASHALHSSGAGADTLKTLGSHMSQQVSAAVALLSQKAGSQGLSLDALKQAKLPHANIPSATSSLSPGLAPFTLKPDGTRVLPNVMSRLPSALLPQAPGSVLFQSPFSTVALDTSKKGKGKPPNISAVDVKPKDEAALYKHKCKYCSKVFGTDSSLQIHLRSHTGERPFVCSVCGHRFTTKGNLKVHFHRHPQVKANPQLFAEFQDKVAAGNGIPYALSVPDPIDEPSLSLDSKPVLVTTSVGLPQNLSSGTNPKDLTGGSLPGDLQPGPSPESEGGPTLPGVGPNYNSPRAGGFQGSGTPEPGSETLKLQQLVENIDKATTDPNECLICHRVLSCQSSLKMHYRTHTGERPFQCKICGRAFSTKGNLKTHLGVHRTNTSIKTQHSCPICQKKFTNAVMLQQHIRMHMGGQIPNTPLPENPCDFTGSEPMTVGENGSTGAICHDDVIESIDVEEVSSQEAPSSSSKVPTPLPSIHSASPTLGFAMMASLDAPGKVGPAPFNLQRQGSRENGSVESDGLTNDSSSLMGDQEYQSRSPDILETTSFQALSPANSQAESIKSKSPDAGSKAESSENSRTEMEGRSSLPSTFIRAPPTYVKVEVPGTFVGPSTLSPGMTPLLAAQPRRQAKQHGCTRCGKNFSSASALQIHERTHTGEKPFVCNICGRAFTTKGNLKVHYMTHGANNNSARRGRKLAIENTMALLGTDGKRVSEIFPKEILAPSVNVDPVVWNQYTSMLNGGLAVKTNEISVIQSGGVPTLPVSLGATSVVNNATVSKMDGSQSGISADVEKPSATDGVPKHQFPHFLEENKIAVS
Technique: universal PBM
Form: double-stranded DNA, one strand shown
Sample: in vitro
Concentration: 600 nM
Notes: 8-mer, flanks averaged, mean of replicates
Direction: higher = stronger binding
Sequence | E-score
GAAGTCAC | -0.114
ACAAGACT | 0.111
AACGTGGT | -0.0602
AGCCTACG | -0.0932
AATGCCGT | 0.0809
GTTAGACA | 0.195
AGTTAACG | 0.115
CAGTGGGC | -0.196
AATCTCCC | -0.131
GCACTGTA | -0.0284
ACTCACAC | -0.0908
ATCTCGGC | -0.188
TTATTGAA | 0.42
CTGATATC | 0.0817
GTATTTGA | 0.255
GCTCTCTA | -0.0226
CGTAATAC | 0.194
GTAGGCAC | -0.299
CCGGTCAG | -0.275
ACAGGAAT | 0.148
CGCACGAG | -0.228
ACGTAGCA | -0.0922
CTTCACGC | -0.0819
GGAACCGA | -0.234
AATCTCGT | 0.0637

Sample 4
Target: RNA binding protein fox-1 homolog 2, RRM domain, GST-SBP tag (RBFOX2, Homo sapiens, UniProt O43251-10, residues 100-194)
Technique: RNA Bind-n-Seq
Form: RNA
Sample: in vitro
Concentration: 365 nM
Notes: natural RNA segment, single round, ends assumed
Relative to: no-protein control
Direction: higher = stronger binding
Constant ends, left off below: GGGAGUUCUACAGUCCGACGAUC … UGGAAUUCUCGGGUGCCAA
Residues (chain): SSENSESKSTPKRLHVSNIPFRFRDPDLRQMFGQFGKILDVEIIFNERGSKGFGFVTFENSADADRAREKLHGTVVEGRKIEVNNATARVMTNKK
Sequence | RBNS enrichment (R)
UCCUCGUUUUACAUUCAUUCCUCUUUGGAUUUGCUUUGUGAUUUUGUUGUUGUUGAUGUUGUUGUUGUUGUGUAAUGUAACAGCACUUUAAAAGGGCGACAACUGACUCA | 0.319
AGGAUAAUAUAAAAAGCGGAUAGAUGGCGCUAUGUUUGAUUCCUACAACGAACCGAUCACCAGCUCCUUUUCAUUUUUAACUCUUUAAAAGGAUUCAAACGCAACUCAAA | 0.532
UUGGUUUCUAGAAGGAAGGGAAAUAAUAUUUCUUGAGCAUUUACUAGGGUGUUGCGUGCUGUGCUAAGUAAAUUUUAAGUCUUUCAGUUUUAUAGAUACGGAAAACAAGG | 2.35
CCUUGGCCUGUCUCAUCCCUGUGGGUCCCAGCUCAGCUCUGGCCACCCCGGGCUCUCUGCUGUACAUAUUCGAGACUAGUUUUUAUUCCUUGUGAAGAUGAUAUACUAUU | 0.29
CACUGGUGAAUAGGGAUUAAUGAAUGGGAAGAGUUCAGUCAGACCAGUAAGCCCUUCUGGGUUUGAGUGUGUUCCCAUGUAGGAGGUAAAACCAAUUCUGGAAGCAUCUA | 1.13
UUGUCAAUGCAGUGUGAAUGUUCUACAUAAAGUGCUUUAACCCUUAACAUUUCCUGGUCAGGAAGGAAAAUCAGUACCUGGACGGGCCUCGAAAAUGACAAAUGCAACAG | 0.689
GCUUCUGUAGAUAAUGUCUGUGGAGUAAAUAUUUGACAGGCCAGAACUUGAGUCUUUUGCCUUGCCUUUAUUACAUGUAAAUUUUGAAUCUCGUGACCAGUGAUUUGGAU | 0.686
UGUUCUCUGUGAAGUGUACUCUUGGGAAGUAUUAACUUUAUAUACAGUUCAGGGGAUCUCAGCUAACUCUAGUGGAAGUGAUACAAAGCAAGCUUAAAUUACAGAAGCAA | 0.411
CAUUUAGAGCUUUGUGCUUUUCUCUCAUUCCAUCACUUUGUAAUGAUGAUACUUAACAUGAGCAGGGUGAAUGACAGGUACUGACGAAGUCCAACACAAAGGUAUAAUAC | 0.565
AGGACAGCGUGUGUGACACCCUGGCUGAGGCUGCUGCAGGUGGGCUGGAAGAGGCUCAGCGUUUGUGCUUGACUGCUGACCACCAGUGGUGCCAGAAGGCCUCAUCCUAC | 1.79
CUCACUUAGUAGUCUGUGGCCCUCUUUGGCACAUUAACCUCCCUCCUUGAUCCUCAGGCUGCACCUCUGGCAAAUGGGAGAAUGCGGCUCCUUUUGACUUCAAGGGAUCU | 0.452
GGGGGAGCCACUGGUUUCGCUCCUCCUGAAGGGAGCUCUGGACCCUCAGGGCCCCCACAGGGGAAGGACCCAGCUCCUGUACAUACAUUUUAUUGCAUGCACUGUGACCU | 0.547
